Published values collected from several papers.
Each line is one published result; not all experiments were run side by side. ± marks the error that the study gave. Values after ≈ are worked out from the molar mass of the structure shown. No end group written: not given here.

Substance	test	system	conditions	scale	quantity	value
C#C[C@]1(CO)O[C@@H](n2cnc3c(N)nc(F)nc32)C[C@@H]1O		human, plasma	oral, 30 mg, single dose, fasted		AUC(0-inf)	3.91 µM·h
OC[C@H]1O[C@@H](c2ccc(F)c(Cc3cc4ccccc4s3)c2)[C@H](O)[C@@H](O)[C@@H]1O		Wistar rat, male, small intestine	oral, dose not given, 1 h	baseline: small intestine over plasma concentration	tissue/plasma ratio	730 ± 377
CC[C@H](C)[C@H](NC(=O)[C@H](CCCNC(=N)N)NC(=O)[C@@H](NC(=O)CNC(C)=O)[C@@H](C)O)C(=O)N[C@H](C(=O)N[C@@H](Cc1ccc(O)cc1)C(=O)N[C@@H](CC(=O)O)C(=O)N[C@@H](CCCNC(=N)N)C(=O)N[C@@H](CCCCN)C(=O)N[C@@H](Cc1ccccc1)C(=O)N[C@@H](CC(C)C)C(=O)N[C@@H](CCSC)C(=O)N[C@@H](CCC(=O)O)C(=O)N[C@@H](CS)C(=O)N[C@@H](CCCNC(=N)N)C(=O)N[C@@H](CC(N)=O)C(N)=O)[C@@H](C)CC	CD spectroscopy	sodium phosphate buffer	25 to 100 µM, pH 7.4, 25 °C		helicity	16%
C[C@]12CC[C@@H]3c4ccc(O)cc4CC[C@H]3[C@@H]1C[C@@H](O)[C@@H]2O	GC-MS	breast cancer women on NSAI, serum	vaginal, 0.03 mg, 2 h, day 0		minimum serum concentration	0 ng/mL
ACEQNPIYWARYAKWLFTTPLLLLKLALLVDADEGTG-OH (18F-labelled, C-acid)	reversed-phase C18 HPLC		MeCN gradient in water with TFA		HPLC retention time	15.8 min
CN(C)C(=N)N=C(N)N		Sprague-Dawley rat, male, liver	oral, 1500 mg/kg, 6 h, single high dose	direction not given	hepatocyte vacuolization score	0
Cc1nc2cccc(OCC(C)(C)C(=O)NC(C)C)c2c(N)c1C(=O)O		female Sprague-Dawley rat, plasma	oral gavage, 30 mg/kg, day 1		Tmax	0.42 h
Cn1cnc2c(F)c(Nc3ccc(Br)cc3Cl)c(C(=O)NOCCO)cc21		nude mice with A-375 tumours, plasma	oral, 10 mg/kg once daily, 7 days, steady state		CL/F	10 mL/min/kg
Cc1cc(Nc2cc3ncccc3c(N[C@@H]3C[C@H]4CC[C@@H](C3)N4CCC#N)n2)n[nH]1		beagle dog, male, plasma	oral, 30 mg/kg/day, last day of 13 weeks		Cmax	82.7 ng/mL
Cc1ccc(NC(=O)c2ccc(CN3CCN(C)CC3)cc2)cc1Nc1nccc(-c2cncc(-c3oncc3C)c2)n1		Parkinson's disease patients, plasma	oral, 100 mg once daily, day 1, 7-day dosing, mean		dose-normalised Cmax	41.6 ng/mL/mg
CN1CC[C@@H](NC(=O)Nc2ccc(C#N)cc2)C[C@@H]1c1nc2ccccc2[nH]1		severe hepatic impairment, plasma	oral, 100 mg single dose, fasted, arithmetic mean		AUC(0-t), unbound	1040 ± 379 ng·h/mL
CC(C)(/C=C(\C#N)C(=O)N1CCC[C@@H](n2nc(-c3ccc(Oc4ccccc4)cc3F)c3c(N)ncnc32)C1)N1CCN(C2COC2)CC1	Holter ECG	healthy human	oral, 400 mg, 6 h post-dose, lowest value	baseline: placebo	placebo-corrected ΔHR	-1.9 bpm
CC(C)=CCC[C@](C)(O[C@@H]1O[C@H](CO)[C@@H](O)[C@H](O)[C@H]1O)[C@H]1CC[C@]2(C)[C@@H]1[C@H](O)C[C@@H]1[C@@]3(C)CC[C@H](O[C@@H]4O[C@H](CO)[C@@H](O)[C@H](O)[C@H]4O[C@@H]4O[C@H](CO)[C@@H](O)[C@H](O)[C@H]4O)C(C)(C)[C@@H]3CC[C@]12C		rat, extracted plasma QC samples	0.1 µg/mL, 24 h, 15 °C, autosampler		post-preparative stability accuracy	109 ± 7.8%
Cn1c(-c2ccc(C(N)=O)cc2F)nnc1C(C)(C)Oc1c(F)cc(Cl)cc1F		elderly non-Japanese subjects, plasma	oral, 20 mg single dose, day 1, mean		AUC(0-inf)	3150 ng·h/mL
CCCC[C@H](NC(C)=O)C(=O)N[C@H]1CCC(=O)NC[C@@H](C(=O)N[C@@H](Cc2c[nH]c3ccccc23)C(N)=O)NC(=O)[C@H](CCCNC(=N)N)NC(=O)[C@@H](Cc2ccccc2)NC(=O)[C@H](Cc2c[nH]cn2)NC1=O		female rat, plasma	subcutaneous, 5 mg/kg/day, multiple doses, once daily		AUC(0-inf)	4300 ng·h/mL
CN[C@H](CC(C)C)C(=O)N[C@H]1C(=O)N[C@@H](CC(N)=O)C(=O)N[C@H]2C(=O)N[C@H]3C(=O)N[C@H](C(=O)N[C@H](C(=O)O)c4cc(O)cc(O)c4-c4cc3ccc4O)[C@H](O)c3ccc(c(Cl)c3)Oc3cc2cc(c3O[C@@H]2O[C@H](CO)[C@@H](O)[C@H](O)[C@H]2O[C@H]2C[C@](C)(N)[C@H](O)[C@H](C)O2)Oc2ccc(cc2Cl)[C@H]1O	microdialysis	pig, Danish Landrace, cortical bone	intravenous, 1000 mg over 100 min, 450 min dosing interval, together with: 2.0 µg/mL MIC	baseline: dosing interval	time above MIC	31%
COc1ccc(-c2oc3c(OC)c(OC)c(OC)c(OC)c3c(=O)c2OC)cc1OC		C57BL/6 mouse, male, liver	oral, 1% w/w in diet, 6 weeks, orange peel extract diet	baseline: content in orange peel	tissue to peel content ratio	0.042%
CNCc1ccc(-c2[nH]c3cc(F)cc4c3c2CCNC4=O)cc1		human patients, plasma	oral, 600 mg twice daily, day 1, 12 h, arithmetic mean		AUC(0-t)	7200 ng·h/mL
Oc1ccc(C=Cc2cc(O)cc(O)c2)cc1		male ApcMin/+ mice, plasma	oral gavage, 45 µg/kg, together with: BaP 100 µg/kg		mean residence time	1.6 ± 0.018 h
CCN(CC)CCNC(=O)c1c(C)[nH]c(/C=C2\C(=O)Nc3ccc(F)cc32)c1C		human, plasma	oral, 20 mg/m2, day 14		maximum trough plasma concentration	58.6 ng/mL
C[C@](N)(Cc1ccc(O)c(O)c1)C(=O)O		supercritical carbon dioxide	5 h, 343 K, 24 MPa, density 724.9 kg/m3		solubility	300 µg/mL (≈ 1420 µM)
CC[C@H](C)[C@@H]1NC(=O)[C@H](Cc2ccc(O)cc2)NC(=O)[C@@H](N)CSSC[C@@H](C(=O)N2CCC[C@H]2C(=O)N[C@@H](CC(C)C)C(=O)NCC(N)=O)NC(=O)[C@H](CC(N)=O)NC(=O)[C@H](CCC(N)=O)NC1=O	microdialysis, radioimmunoassay	knock-out male mice lacking compound, hippocampus extracellular fluid	intranasal, 12 µg, incremental area over baseline		AUC above baseline	185 ± 96 pg·30 min/sample

Substance	test	system	conditions	scale	quantity	value
CC(C)=CCC[C@](C)(O[C@@H]1O[C@H](CO[C@@H]2O[C@H](CO)[C@@H](O)[C@H](O)[C@H]2O)[C@@H](O)[C@H](O)[C@H]1O)[C@H]1CC[C@]2(C)[C@@H]1[C@H](O)C[C@@H]1[C@@]3(C)CC[C@H](O[C@@H]4O[C@H](CO)[C@@H](O)[C@H](O)[C@H]4O[C@@H]4O[C@H](CO)[C@@H](O)[C@H](O)[C@H]4O)C(C)(C)[C@@H]3CC[C@]12C		rat, extracted tissue homogenate QC samples	1.0 µg/mL, 24 h, 15 °C, autosampler		post-preparative stability accuracy	95 ± 8.9%
C[C@H](N)C(=O)N[C@H](Cc1c[nH]c2ccccc12)C(=O)N[C@@H](Cc1ccccc1)C(=O)N[C@H](Cc1ccc2ccccc2c1)C(=O)N1CCC(C(N)=O)CC1	RP-HPLC Jupiter Proteo		acetonitrile/water TFA gradient		HPLC retention	53.3 %B
O=C(O)[C@H](c1ccccc1Cl)N1CCc2sccc2C1	HPLC-MS/MS	feline EDTA plasma	12 h, 4 °C, storage stability		deviation from nominal	11%
CCCSc1nc(N[C@@H]2C[C@H]2c2ccc(F)c(F)c2)c2nnn([C@@H]3C[C@H](OCCO)[C@@H](O)[C@H]3O)c2n1		Wistar Han rat, female, plasma	oral, 20 mg/kg/day, day 1, carcinogenicity study		AUC	21.1 µM·h
CC(C)C[C@@H]1NC(=O)[C@H](C)NC(=O)[C@H](Cc2ccccc2)N(C)Cc2ccc([nH]2)CNC1=O		PAMPA	100 µM, 17 h, pH 6.4		Papp	7.76 ×10⁻⁶ cm/s
Cc1cccc(C)c1OCC(=O)N[C@@H](Cc1ccccc1)[C@@H](O)C[C@H](Cc1ccccc1)NC(=O)[C@H](C(C)C)N1CCCNC1=O	modified PAMPA Franz cell	phosphate buffer with HPMCAS	stock 20 mg/mL, 3 h, 25 °C, 839 nm system, 300 rpm, together with: 3% BSA receiver		free drug permeability	19.6 ± 0.1 ×10⁻⁶ cm/s
CC(=O)N[C@H](CCNC(=O)c1cc(NC(=O)c2cc(NC(=O)c3cc(NC(=O)c4nccn4C)cn3C)cn2C)cn1C)C(=O)Nc1cn(C)c(C(=O)Nc2cc(C(=O)Nc3cc(C(=O)Nc4cc(C(=O)NCCCN(C)CCCN[14C](=O)c5cccc([14C](=O)O)c5)n(C)c4)n(C)c3)n(C)c2)n1	radiolabel counting	NSG male mouse, LNCaP xenograft, liver	intraperitoneal, 20 nmol per animal, 24 h		tissue concentration	1.04 mg/kg
COc1ccc2nc([S@@+]([O-])Cc3ncc(C)c(OC)c3C)[nH]c2c1		human healthy	40 mg, headache		adverse events	0%
COc1ccc(-c2cc(=O)c3c(OC)c(OC)c(OC)cc3o2)cc1OC		C57BL/6 mouse, male, small intestine	oral, 1% w/w in diet, 6 weeks, orange peel extract diet	baseline: content in orange peel	tissue to peel content ratio	4.61%
CC(C)(C)CCN1CC2C(CNC(=O)c3cc(Cl)cc(Cl)c3)C2C1 (centres unmarked)		Sprague-Dawley rat, male	oral, 3 to 30 mg/kg range	baseline: brain over plasma	tissue/plasma ratio	16.9
CC[C@H](C)[C@H](NC(=O)[C@H](CCCCN)NC(=O)[C@@H](NC(=O)[C@H](CCC(N)=O)NC(=O)[C@@H](N)CCCNC(=N)N)[C@@H](C)CC)C(=O)N[C@@H](Cc1c[nH]c2ccccc12)C(=O)N[C@@H](Cc1ccccc1)C(=O)N[C@@H](CCC(N)=O)C(=O)N[C@@H](CC(N)=O)C(=O)N[C@@H](CCCNC(=N)N)C(=O)N[C@@H](CCCNC(=N)N)C(=O)N[C@@H](CCSC)C(=O)N[C@@H](CCCCN)C(=O)N[C@@H](Cc1c[nH]c2ccccc12)C(=O)N[C@@H](CCCCN)C(=O)N[C@@H](CCCCN)C(N)=O	circular dichroism	TFE:water 50:50	40 µM, 25 °C		α-helix content	11%
COc1ccc2cc3[n+](cc2c1OC)CCc1cc2c(cc1-3)OCO2		rat plasma QC sample	640 ng/mL nominal, 15 days, -80 °C, high QC level storage stability		measured concentration	624 ± 13.1 ng/mL
CCCC[C@@H]1NC(=O)[C@@H](NC(=O)[C@H](CCC(=O)O)NC(=O)CNC(=O)CN2CCN(CC(=O)O)CCN(CC(=O)O)CCN(CC(=O)O)CC2)CCCCNC(=O)C[C@@H](C(N)=O)NC(=O)[C@H](C(C)C)NC(=O)[C@@H]2CCCN2C(=O)[C@H](CCCNC(=N)N)NC(=O)CNC(=O)[C@H](Cc2c[nH]c3ccccc23)NC(=O)[C@H](CCCNC(=N)N)NC(=O)[C@@H](Cc2ccccc2)NC(=O)[C@H](Cc2c[nH]cn2)NC(=O)[C@H](CCC(=O)O)NC1=O [indium-111 labelled]		normal C57 mice, brain	intravenous, 0.037 MBq, 4 h		tissue uptake	0.01 ± 0.01 %ID/g
COC(=O)C[C@](O)(CCCC(C)(C)O)C(=O)O[C@@H]1C(OC)=C[C@]23CCCN2CCc2cc4c(cc2[C@H]13)OCO4		CD1 mouse, spleen	oral, 1 mg/kg, 24 h, below quantification limit 1.00 ng/mL		tissue concentration	not detected
CNCc1ccc(-c2[nH]c3cc(F)cc4c3c2CCNC4=O)cc1		human cancer patients, plasma	intravenous, 8 mg/m2, day 1, together with: temozolomide 100		clearance	250 mL/min
Cc1[nH]c(=O)c(CNC(=O)c2ccc([N+](=O)[O-])s2)c2c1CCCC2	U-HPLC	20% DMSO in water			kinetic solubility	130 µg/mL (≈ 373 µM)
CCOc1cc(C(C)(C)C)ccc1C1=N[C@@](C)(c2ccc(Cl)cc2)[C@@](C)(c2ccc(Cl)cc2)N1C(=O)N1CCN(CCCS(C)(=O)=O)CC1		athymic nude mice, orthotopic GBM, contralateral brain hemisphere	oral, 100 mg/kg		Tmax	8 h
Nc1ccn([C@@H]2O[C@H](CO)[C@@H](O)C2(F)F)c(=O)n1		extracted rat plasma	3200.00 ng/mL, 8 h, 10 °C, autosampler stability, high QC		measured concentration	3000 ± 152 ng/mL
O=C(c1cc(Cl)c(O)c(Cl)c1)N1CS(=O)(=O)c2ccccc21		healthy Chinese adults, fasted, plasma	oral, 4 mg single dose, day 1		AUC(0-24h)	3950 ± 415 ng·h/mL
CN1CCc2nc(C(=O)N[C@@H]3C[C@@H](C(=O)N(C)C)CC[C@@H]3NC(=O)C(=O)Nc3ccc(Cl)cn3)sc2C1		human	60 mg once daily, day 4		Ctrough	15.4 ± 6.19 ng/mL
CC(C)C[C@H](NC(=O)[C@H](CCCNC(=N)N)NC(=S)Nc1ccc(C[C@H]2CN(CC(=O)O)CCN(CC(=O)O)CCN2CC(=O)O)cc1)C(=O)N[C@@H](CC(N)=O)C(=O)N[C@H](C(=O)NCC(=O)NCC(=O)N[C@H](C(=O)N[C@@H](Cc1ccc(O)cc1)C(=O)N[C@@H](Cc1ccccc1)C(=O)N[C@@H](CC(C)C)C(=O)N[C@H](C(=O)N[C@H](C(=O)N[C@@H](CCCNC(=N)N)C(=O)N[C@@H](CCC(N)=O)C(=O)O)[C@@H](C)O)[C@@H](C)O)[C@@H](C)O)C(C)C [fluorine-18 labelled]	reverse-phase HPLC				HPLC retention time	14 min
CC(C(=O)O)c1ccc(-c2ccccc2)c(F)c1 (centres unmarked)		rabbit, male, plasma	oral, 2.58 mg/kg, single dose		Vd	0.09 ± 0.02 L/kg

Repeated from above:
Substance	test	system	conditions	scale	quantity	value
CCOc1cc(C(C)(C)C)ccc1C1=N[C@@](C)(c2ccc(Cl)cc2)[C@@](C)(c2ccc(Cl)cc2)N1C(=O)N1CCN(CCCS(C)(=O)=O)CC1		athymic nude mice, orthotopic GBM, contralateral brain hemisphere	oral, 100 mg/kg		Tmax	8 h
CN1CC[C@@H](NC(=O)Nc2ccc(C#N)cc2)C[C@@H]1c1nc2ccccc2[nH]1		severe hepatic impairment, plasma	oral, 100 mg single dose, fasted, arithmetic mean		AUC(0-t), unbound	1040 ± 379 ng·h/mL
Cc1cccc(C)c1OCC(=O)N[C@@H](Cc1ccccc1)[C@@H](O)C[C@H](Cc1ccccc1)NC(=O)[C@H](C(C)C)N1CCCNC1=O	modified PAMPA Franz cell	phosphate buffer with HPMCAS	stock 20 mg/mL, 3 h, 25 °C, 839 nm system, 300 rpm, together with: 3% BSA receiver		free drug permeability	19.6 ± 0.1 ×10⁻⁶ cm/s
